Experimental data pooled from the literature.
Lines come from different studies, so protocols differ. ± gives the spread as reported.
ampC: Beta-lactamase (ampC, Escherichia coli K-12, UniProt P00811)

SMILES | target | test | system | conditions | Ki
CC(C)C[C@H](NC(=O)[C@H](CCCNC(=N)N)NC(=O)[C@H](Cc1ccccc1)NC(=O)[C@H](Cc1ccccc1)NC(=O)[C@H](Cc1ccccc1)N(C)C(=O)CN)C(=O)N[C@@H](CCCNC(=N)N)C(=O)N[C@@H](CCCNC(=N)N)C(=O)N[C@H](C)C(=O)N[C@@H](CCCNC(=N)N)C(=O)N1CCC[C@H]1C(=O)N[C@@H](CCCCN)C(N)=O | Oprk1 (Rattus norvegicus, UniProt P34975) | ligand displacement, radioligand |  |  | 28.9 nM
CC(C)(C)c1cc(B(O)O)cc(C(C)(C)C)c1 | ampC | enzyme activity, inhibitor |  | together with: CENTA | 3200 nM
CC(=O)N[C@@H](CCCNC(=N)N)C(=O)N[C@@H](Cc1ccc(O)cc1)C(=O)N[C@H]1CCCNC(=N)NC(=O)NCCCCNC(=O)[C@H](Cc2ccc(O)cc2)NC(=O)[C@H](CCCNC(=N)N)NC(=O)[C@H](CC(C)C)NC1=O | NPY5R (Homo sapiens, UniProt Q15761) | ligand displacement, radioligand |  |  | > 5000 nM
C[C@]12CC[C@@H]3c4cc(Cl)c(O)c(Cl)c4CC[C@H]3[C@@H]1CCC2=O | AKR1C1 (Homo sapiens, UniProt Q04828) | enzyme activity, inhibitor, absorbance |  |  | 690 nM
O=C(CCS(=O)O)c1ccccc1 | ampC |  |  |  | 70000 nM
CCC(=O)c1ccc2c(c1)sc(=O)n2CCN1CCCC1 | Sigmar1 (Rattus norvegicus, UniProt Q9R0C9) | binding, radioligand binding | rat liver membranes | together with: [3H](+)-pentazocine 5 nM | 116 ± 15 nM
CC(CCC(=O)NC(CCC(=O)Nc1cccnc1)C(=O)O)C1CCC2C3C(O)CC4CC(O)CCC4(C)C3CCC12C (stereo not shown) | SLC10A2 (Homo sapiens, UniProt Q12908) | taurocholate uptake, inhibitor | ASBT-MDCK | 10 min, together with: taurocholate 2.5 µM | 1510 nM
CC[C@H](C)[C@H](NC(=O)CN)C(=O)N[C@H](C(=O)N[C@@H](CC(N)=O)C(=O)N[C@H](C(=O)N[C@@H](CC(C)C)C(=O)N[C@@H](CCC(N)=O)C(=O)N[C@@H](CCC(N)=O)C(=O)N[C@@H](Cc1ccc(O)cc1)C(=O)N[C@@H](Cc1ccc(O)cc1)C(=O)N[C@H]1CSSC[C@@H]2NC(=O)[C@H](CCC(N)=O)NC(=O)[C@H](CCC(N)=O)NC(=O)CNC(=O)[C@H](CCC(N)=O)NC(=O)[C@H]([C@@H](C)O)NC(=O)[C@H](CO)NC(=O)[C@@H]3CSSC[C@H](NC(=O)[C@H](CCCNC(=N)N)NC(=O)CNC(=O)CNC(=O)[C@H](CCCNC(=N)N)NC(=O)[C@H](C(C)C)NC(=O)[C@H](CCC(N)=O)NC1=O)C(=O)N[C@@H](C)C(=O)N[C@@H](C(C)C)C(=O)N[C@@H](CC(C)C)C(=O)N[C@@H](CO)C(=O)N[C@@H](CSSC[C@@H](C(=O)N[C@@H](CCCNC(=N)N)C(=O)N[C@@H](CCCNC(=N)N)C(=O)N[C@@H](CCCCN)C(=O)N[C@@H](CCCCN)C(N)=O)NC2=O)C(=O)N[C@@H](CC(C)C)C(=O)N1CCC[C@H]1C(=O)N[C@@H](CCCCN)C(=O)N[C@@H](CCC(=O)O)C(=O)N[C@@H](CCC(=O)O)C(=O)N[C@@H](CCC(N)=O)C(=O)N[C@@H]([C@@H](C)CC)C(=O)NCC(=O)N[C@@H](CCC(N)=O)C(=O)N3)[C@@H](C)O)[C@@H](C)CC | MC1R (Homo sapiens, UniProt Q01726) | ligand displacement in cells |  |  | > 5000 nM
O=C(/C=C/c1ccc(F)cc1)c1ccc(N2CCNCC2)cc1 | MAOB (Homo sapiens, UniProt P27338) | enzyme activity, inhibitor |  |  | 630 nM
CCCCCCCC[C@@H](O)[C@H](C)C(=O)N[C@H](CCC(=O)O)C(=O)N[C@H](CC(=O)O)C(=O)N[C@H](CC(C)C)C(=O)N[C@H](CC(C)C)C(=O)N[C@H](CC(C)C)C(=O)N[C@H](CC(C)C)C(=O)N[C@@H](C(N)=O)C(C)C | Mediator of RNA polymerase II transcription subunit 25, ACID domain; with ATF6α (Homo sapiens, UniProt Q71SY5) | fluorescence polarization |  | together with: NP40 or Triton X-100 | no effect

For quick reference, copied from above:
SMILES | target | test | system | conditions | Ki
CC(=O)N[C@@H](CCCNC(=N)N)C(=O)N[C@@H](Cc1ccc(O)cc1)C(=O)N[C@H]1CCCNC(=N)NC(=O)NCCCCNC(=O)[C@H](Cc2ccc(O)cc2)NC(=O)[C@H](CCCNC(=N)N)NC(=O)[C@H](CC(C)C)NC1=O | NPY5R (Homo sapiens, UniProt Q15761) | ligand displacement, radioligand |  |  | > 5000 nM
